Published values from different studies.
Lines come from different studies, so protocols differ. ± gives the spread as reported.

With `CN(C)c1ccc(-c2nc3ccc(OCCCCCN4CCN5CCN(CC4)CC(=O)[O][Al]([18F])[O]C(=O)C5)cc3s2)cc1` the logD was 0.74 ± 0.004 (shake-flask; n-octanol/PBS).
`COC(=O)N1c2ccc3c(nc(Cc4ccccc4)n3[C@@H]3CCC[C@@H](C(=O)O)C3)c2CC[C@@H]1C` gave a logD of 2.2.
`Oc1ccccc1-c1nn(-c2ccccn2)[n+](-c2ccccc2)n1.[Br-]` has a logD of 0.1 (shake-flask; octanol/PBS; pH 7.4).
For `Cc1cnc(Nc2cc(C)c(C)c(C)c2)nc1Nc1ccc2oc(=O)[nH]c2c1`, the logD was 4.2 (pH 7.4).
With `O=C([O-])CN1CCN(CC(=O)[O-])CCN(C(CCC(=O)NCCCCCNC(=O)CCC(NC(=O)NC(CCC(=O)O)C(=O)O)C(=O)O)C(=O)O)CC1.[64Cu+2]` (stereo not drawn) the logD was -2.21 ± 0.35 (shake-flask; 1-octanol/PBS; pH 7.4).
With `O=C(c1ccc(C23CC(S(F)(F)(F)(F)F)(CO2)C3)cc1)N1CCN(c2ncccn2)CC1` the logD was 3.3 (pH 7.4).
`COC(=O)c1cn(C2(C)CC(C)C(=O)C(C(CC3CC(=O)NC(=O)C3)OC(C)=O)C2)nn1` (stereo not drawn) has a logD of -0.069 (pH 7.4).
`COc1cc2nc(N3CCCCC3)nc(NC3CCN(C)CC3)c2cc1OC` gave a logD of 3.8 (chromatographic; pH 7.4).
`CC(=O)O[C@H](CC1CC(=O)NC(=O)C1)[C@@H]1CC(C)C[C@H](C)C1=O` (stereo partly drawn) gave a logD of 1.04 (pH 7.4).
`CCCC[P+](CCCC)(CCCC)CCCC.Cc1ccc(S(=O)(=O)[N-]C(=O)NN2CC3CCCC3C2)cc1` (stereo not drawn) gave a logD of 0.25 ± 0.02 (shake-flask; n-octanol/PBS; pH 7.4, 37 °C).
`CCC(=O)N1CCN(c2ccc(N(C)C(=O)C(C)(C)c3cc(C(F)(F)F)cc(C(F)(F)F)c3)c(-c3ccccc3C)c2)CC1` gave a logD of 5.05 (octanol/acetate buffer; pH 5.0).
`Oc1cccc(-c2cccc(O)n2)n1.[Cl-].[Cl-].[Ru+2].c1cnc2c(c1)ccc1cccnc12.c1cnc2c(c1)ccc1cccnc12` has a logD of 1.7 (shake flask; octanol/phosphate buffer; pH 8.00).
`[Br-].c1ccc(-n2nc(-c3ccccn3)n[n+]2-c2ccccc2)cc1` has a logD of -1.8 (shake-flask; octanol/PBS; pH 7.4).
`CC(=O)Nc1ncc(CN2CC[C@H](Oc3cccc([18F])n3)C[C@@H]2C)s1` gave a logD of 3.04 ± 0.01 (shake flask; 1-octanol/sodium phosphate buffer 0.15 M; pH 7.4).
`COc1ccc(N2CCOCC2)c2sc(NC(=O)c3ccnc(CN4CCCC4)c3)nc12` gave a logD of 1.5 (CAMDIS; pH 7.4).
For `Cc1cccc(CSc2nc(N)c(C#N)c(-c3cccc(O[11CH3])c3)c2C#N)n1`, the logD was 3.25 (1-octanol/phosphate buffer 0.1 M; pH 7.4).
`[Br-].c1ccc(-c2nn(-c3ccccn3)[n+](-c3ccccc3)n2)cc1` has a logD of -0.5 (shake-flask; octanol/PBS; pH 7.4).
`Oc1cccc(-c2cccc(O)n2)n1.[Cl-].[Cl-].[Ru+2].c1cnc2c(c1)c1c(c3cccnc32)OCCO1.c1cnc2c(c1)c1c(c3cccnc32)OCCO1` gave a logD of 1.37 (shake flask; octanol/acetate buffer; pH 5.25).
`[2H]C1([2H])CC[C@@H](C[C@@H](C#N)NC(=O)[C@@H]2[C@@H]3[C@H](CN2C(=O)[C@@H](NC(=O)C(F)F)C(C)(C)C)C3(C)C)C(=O)N1` has a logD of ~1.5.
`Cc1cc2c(c(=O)o1)C=C1CCC(C(C)CNCc3ccc(O)cc3)CC1O2` (stereo not drawn) has a logD of 1.48 (n-octanol/PBS partition; pH 7.4).
`COc1cc2c(=O)c(C(=O)NCCNCCO)cn(Cc3ccccc3)c2cc1OCc1ccc(C(C)(C)C)cc1` has a logD of 2.7 (shake-flask; 1-octanol/PBS; 2 h, pH 7.4).
`O=C([O-])CN1CCN(CC(=O)[O-])CC(Cc2ccc(NC(=S)NCCOCCOCCOCCOCCOCCOCCOCCNC(=O)CCCC(=O)NCc3ccc(-c4nncnn4)cc3)cc2)N(CC(=O)[O-])CC1.[64Cu+2]` (stereo not drawn) gave a logD of -2.44 ± 0.08 (1-octanol/PBS; pH 7.4).
For `[2H]C1([2H])CC[C@@H](C[C@@H](C#N)NC(=O)[C@@H]2[C@@H]3[C@H](CN2C(=O)[C@@H](NC(=O)C(F)(F)F)C(C)(C)C)C3(C)C)C(=O)N1`, the logD was 2.09.
The logD of `Cn1cncn1.[Ru+2].c1cc(-c2ccc3ccccc3n2)nc(-c2ccc3ccccc3n2)c1.c1ccc2cc3nc4c5cccnc5c5ncccc5c4nc3cc2c1` is reported as -0.26 ± 0.02 (shake-flask).
`Cc1ccccc1-c1cc(N2CCN(C)CC2)ccc1N(C)C(=O)C(C)(C)c1cc(C(F)(F)F)cc(C(F)(F)F)c1` has a logD of 3.85 (octanol/acetate buffer; pH 5.0).
`CN(C)c1ccc2c(-c3ccccc3C(=O)OCCOCC[18F])c3ccc(N(C)C)cc3[o+]c2c1` has a logD of 1.9 ± 0.01 (octanol/PBS; pH 7.4).
`CC(=O)N([O-])CCCCCNC(=O)CCC(=O)N([O-])CCCCCNC(=O)CCC(=O)N([O-])CCCCCN.[89Zr+4]` has a logD of -2.7 ± 6 (octanol/PBS; pH 7.4).

Repeated from above:
For `Cc1cnc(Nc2cc(C)c(C)c(C)c2)nc1Nc1ccc2oc(=O)[nH]c2c1`, the logD was 4.2 (pH 7.4).
With `O=C([O-])CN1CCN(CC(=O)[O-])CCN(C(CCC(=O)NCCCCCNC(=O)CCC(NC(=O)NC(CCC(=O)O)C(=O)O)C(=O)O)C(=O)O)CC1.[64Cu+2]` (stereo not drawn) the logD was -2.21 ± 0.35 (shake-flask; 1-octanol/PBS; pH 7.4).
With `O=C(c1ccc(C23CC(S(F)(F)(F)(F)F)(CO2)C3)cc1)N1CCN(c2ncccn2)CC1` the logD was 3.3 (pH 7.4).
`COC(=O)c1cn(C2(C)CC(C)C(=O)C(C(CC3CC(=O)NC(=O)C3)OC(C)=O)C2)nn1` (stereo not drawn) has a logD of -0.069 (pH 7.4).
`COc1cc2nc(N3CCCCC3)nc(NC3CCN(C)CC3)c2cc1OC` gave a logD of 3.8 (chromatographic; pH 7.4).
